Measurements of several laboratories.
Numbers after ± are the reported error.
VHL/BRD9 with Elongin B/C: VHL/BRD9, with Elongin B/C (Homo sapiens, UniProt P40337+Q9H8M2)
Sequence of UniProt P40337 (whole entry, looked up): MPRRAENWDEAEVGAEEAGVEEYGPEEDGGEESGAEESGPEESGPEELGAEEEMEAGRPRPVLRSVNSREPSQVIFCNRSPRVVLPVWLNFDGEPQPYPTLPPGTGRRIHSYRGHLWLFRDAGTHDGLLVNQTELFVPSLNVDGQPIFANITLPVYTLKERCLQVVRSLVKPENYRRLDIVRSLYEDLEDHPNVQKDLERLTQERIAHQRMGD
Sequence of UniProt Q9H8M2 (whole entry, looked up): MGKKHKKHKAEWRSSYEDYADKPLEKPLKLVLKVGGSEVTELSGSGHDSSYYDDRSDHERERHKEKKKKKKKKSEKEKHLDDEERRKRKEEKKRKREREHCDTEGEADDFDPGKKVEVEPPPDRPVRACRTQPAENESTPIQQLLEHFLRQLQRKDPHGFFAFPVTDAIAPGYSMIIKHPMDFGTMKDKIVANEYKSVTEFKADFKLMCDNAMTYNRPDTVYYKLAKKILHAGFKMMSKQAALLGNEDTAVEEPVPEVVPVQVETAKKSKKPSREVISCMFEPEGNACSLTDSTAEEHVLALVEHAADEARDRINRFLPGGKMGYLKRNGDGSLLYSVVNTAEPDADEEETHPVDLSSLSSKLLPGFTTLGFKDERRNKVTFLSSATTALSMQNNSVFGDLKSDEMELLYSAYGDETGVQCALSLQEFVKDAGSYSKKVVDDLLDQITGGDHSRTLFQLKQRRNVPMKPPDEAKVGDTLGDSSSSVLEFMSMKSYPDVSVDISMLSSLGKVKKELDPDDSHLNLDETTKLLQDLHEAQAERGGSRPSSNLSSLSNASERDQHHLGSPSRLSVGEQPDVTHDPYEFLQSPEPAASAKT
CALCR: Calcitonin receptor (CALCR, Homo sapiens, UniProt P30988)
Sequence of UniProt P30988 (whole entry, looked up): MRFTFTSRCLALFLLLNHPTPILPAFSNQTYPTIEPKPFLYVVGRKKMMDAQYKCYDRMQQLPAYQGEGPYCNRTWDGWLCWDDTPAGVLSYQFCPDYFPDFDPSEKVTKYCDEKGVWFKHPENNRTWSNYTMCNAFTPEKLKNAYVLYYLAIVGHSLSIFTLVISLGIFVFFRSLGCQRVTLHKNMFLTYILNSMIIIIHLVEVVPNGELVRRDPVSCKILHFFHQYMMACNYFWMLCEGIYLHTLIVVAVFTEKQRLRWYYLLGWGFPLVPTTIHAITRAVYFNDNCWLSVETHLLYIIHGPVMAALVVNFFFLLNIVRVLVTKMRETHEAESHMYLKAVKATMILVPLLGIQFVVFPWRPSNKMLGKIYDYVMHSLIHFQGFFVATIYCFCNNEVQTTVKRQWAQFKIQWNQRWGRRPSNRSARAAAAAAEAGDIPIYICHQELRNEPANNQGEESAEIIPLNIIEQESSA
Sequence of UniProt O60603 (whole entry, looked up): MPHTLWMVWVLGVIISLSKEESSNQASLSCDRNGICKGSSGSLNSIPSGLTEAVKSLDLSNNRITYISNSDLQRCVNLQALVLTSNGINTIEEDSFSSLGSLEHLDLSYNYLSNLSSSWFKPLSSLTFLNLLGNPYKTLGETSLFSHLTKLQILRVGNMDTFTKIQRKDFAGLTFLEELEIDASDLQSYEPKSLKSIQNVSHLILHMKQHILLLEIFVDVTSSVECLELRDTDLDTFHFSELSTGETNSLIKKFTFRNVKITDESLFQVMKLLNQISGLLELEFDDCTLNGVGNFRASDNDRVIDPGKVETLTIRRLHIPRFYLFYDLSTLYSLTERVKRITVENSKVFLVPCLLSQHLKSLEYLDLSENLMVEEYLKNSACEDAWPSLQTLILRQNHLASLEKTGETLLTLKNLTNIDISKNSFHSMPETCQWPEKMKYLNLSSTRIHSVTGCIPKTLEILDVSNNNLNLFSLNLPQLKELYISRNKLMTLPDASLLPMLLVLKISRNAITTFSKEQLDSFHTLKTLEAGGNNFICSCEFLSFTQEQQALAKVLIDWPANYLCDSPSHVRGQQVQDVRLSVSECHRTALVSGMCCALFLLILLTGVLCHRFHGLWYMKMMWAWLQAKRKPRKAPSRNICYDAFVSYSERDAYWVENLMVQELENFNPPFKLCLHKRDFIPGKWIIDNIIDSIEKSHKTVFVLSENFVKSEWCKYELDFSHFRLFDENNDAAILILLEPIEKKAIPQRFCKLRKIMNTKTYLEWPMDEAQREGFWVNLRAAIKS
Sequence of UniProt P61981 (whole entry, looked up): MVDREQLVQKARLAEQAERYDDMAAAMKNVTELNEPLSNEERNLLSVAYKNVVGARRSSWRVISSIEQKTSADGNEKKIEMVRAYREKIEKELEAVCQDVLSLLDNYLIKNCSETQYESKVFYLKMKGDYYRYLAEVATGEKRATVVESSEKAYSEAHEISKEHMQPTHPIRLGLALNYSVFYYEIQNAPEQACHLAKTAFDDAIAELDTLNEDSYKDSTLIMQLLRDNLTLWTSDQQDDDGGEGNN
Sequence of UniProt P49286 (whole entry, looked up): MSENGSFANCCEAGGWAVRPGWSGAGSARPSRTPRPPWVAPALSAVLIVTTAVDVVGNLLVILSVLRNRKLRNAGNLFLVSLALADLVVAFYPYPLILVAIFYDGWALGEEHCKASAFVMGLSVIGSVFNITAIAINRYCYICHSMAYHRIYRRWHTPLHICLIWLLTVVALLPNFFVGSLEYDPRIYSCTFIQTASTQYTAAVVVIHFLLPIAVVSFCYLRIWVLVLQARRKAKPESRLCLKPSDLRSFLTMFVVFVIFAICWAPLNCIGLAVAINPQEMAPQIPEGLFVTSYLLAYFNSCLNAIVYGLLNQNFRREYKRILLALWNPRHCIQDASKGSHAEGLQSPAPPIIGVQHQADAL
Sequence of UniProt Q92847 (whole entry, unmodified, looked up): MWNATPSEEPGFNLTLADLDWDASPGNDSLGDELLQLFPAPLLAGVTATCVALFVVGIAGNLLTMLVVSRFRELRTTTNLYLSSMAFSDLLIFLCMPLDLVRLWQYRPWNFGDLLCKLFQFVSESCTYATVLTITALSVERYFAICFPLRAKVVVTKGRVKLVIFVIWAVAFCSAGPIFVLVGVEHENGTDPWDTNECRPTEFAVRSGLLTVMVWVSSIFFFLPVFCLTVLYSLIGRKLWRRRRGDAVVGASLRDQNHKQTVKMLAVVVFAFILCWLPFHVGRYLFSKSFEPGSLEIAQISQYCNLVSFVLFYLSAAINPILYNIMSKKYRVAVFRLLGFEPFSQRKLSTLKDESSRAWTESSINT
Sequence of UniProt Q04206 (whole entry, looked up): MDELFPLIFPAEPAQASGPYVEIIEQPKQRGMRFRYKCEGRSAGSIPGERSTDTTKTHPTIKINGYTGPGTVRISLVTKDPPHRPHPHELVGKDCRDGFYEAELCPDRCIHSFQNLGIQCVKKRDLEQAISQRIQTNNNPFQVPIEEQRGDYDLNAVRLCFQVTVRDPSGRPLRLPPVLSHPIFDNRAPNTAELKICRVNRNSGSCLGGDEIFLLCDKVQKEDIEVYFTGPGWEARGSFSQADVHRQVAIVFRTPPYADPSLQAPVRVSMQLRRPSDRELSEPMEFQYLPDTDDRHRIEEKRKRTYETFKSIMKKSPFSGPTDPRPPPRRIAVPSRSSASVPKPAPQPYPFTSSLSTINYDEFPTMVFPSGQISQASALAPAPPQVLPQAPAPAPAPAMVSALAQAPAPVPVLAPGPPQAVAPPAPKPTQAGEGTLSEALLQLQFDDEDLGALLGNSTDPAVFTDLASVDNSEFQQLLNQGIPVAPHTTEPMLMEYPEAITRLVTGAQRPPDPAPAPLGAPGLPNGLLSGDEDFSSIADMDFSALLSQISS
Sequence of UniProt O75762 (whole entry, unmodified, looked up): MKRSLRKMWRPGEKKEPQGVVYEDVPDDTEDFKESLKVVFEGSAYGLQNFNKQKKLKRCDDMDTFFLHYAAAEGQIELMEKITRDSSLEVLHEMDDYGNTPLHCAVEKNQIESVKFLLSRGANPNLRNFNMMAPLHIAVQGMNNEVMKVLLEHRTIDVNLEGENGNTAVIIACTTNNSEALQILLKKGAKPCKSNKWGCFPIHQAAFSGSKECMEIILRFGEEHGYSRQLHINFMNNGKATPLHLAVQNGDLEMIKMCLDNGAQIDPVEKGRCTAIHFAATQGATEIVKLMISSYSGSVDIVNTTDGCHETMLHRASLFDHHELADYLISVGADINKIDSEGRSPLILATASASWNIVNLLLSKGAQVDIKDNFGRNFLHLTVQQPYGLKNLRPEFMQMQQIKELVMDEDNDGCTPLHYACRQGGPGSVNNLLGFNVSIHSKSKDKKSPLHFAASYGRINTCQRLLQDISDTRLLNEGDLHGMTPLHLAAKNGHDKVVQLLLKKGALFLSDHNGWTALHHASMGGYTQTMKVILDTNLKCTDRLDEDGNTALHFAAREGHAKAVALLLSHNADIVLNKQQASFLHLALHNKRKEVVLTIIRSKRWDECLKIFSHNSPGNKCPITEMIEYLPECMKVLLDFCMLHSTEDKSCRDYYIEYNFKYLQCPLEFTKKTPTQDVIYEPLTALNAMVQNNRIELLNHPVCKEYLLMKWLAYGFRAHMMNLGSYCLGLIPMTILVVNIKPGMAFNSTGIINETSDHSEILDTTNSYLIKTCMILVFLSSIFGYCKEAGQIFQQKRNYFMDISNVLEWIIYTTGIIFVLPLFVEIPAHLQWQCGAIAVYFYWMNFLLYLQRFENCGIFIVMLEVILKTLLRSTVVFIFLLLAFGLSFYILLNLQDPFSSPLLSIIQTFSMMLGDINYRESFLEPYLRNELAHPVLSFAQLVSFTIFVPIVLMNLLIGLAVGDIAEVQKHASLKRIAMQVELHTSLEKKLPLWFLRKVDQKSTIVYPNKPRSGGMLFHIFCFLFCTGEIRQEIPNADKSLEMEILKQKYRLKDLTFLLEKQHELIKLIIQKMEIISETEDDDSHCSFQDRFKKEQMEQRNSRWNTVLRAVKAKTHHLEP

CC(=O)NCC1CCCCN1c1nc(N(C)CCc2ncc(C)s2)nc(N2CC3C(CCOc4cc(-c5scnc5C)ccc4CNC(=O)[C@@H]4C[C@@H](O)CN4C(=O)[C@@H](NC(=O)C4(F)CC4)C(C)(C)C)C3C2)n1 (stereo partly drawn) has an EC50 of 0.294 µM (VHL/BRD9 with Elongin B/C; ternary complex formation, AlphaScreen; added: 50 nM His-BRD9 and 20 nM biotin-VCB).
For CC[C@H](C)[C@@H](C(=O)N[C@@H](CC(C)C)C(=O)N[C@@H](CO)C(=O)N[C@@H](CO)C(=O)N[C@H](C(=O)N[C@@H](CCC(=O)O)C(=O)N[C@H](C(=O)NCC(=O)N[C@@H](CO)C(=O)N[C@@H](CC(N)=O)C(=O)N[C@H](C(=O)N1C[C@H](O)C[C@H]1C(N)=O)[C@@H](C)O)C(C)C)[C@@H](C)O)N(C)C(=O)[C@H](C)NC(=O)CN(C)C(=O)[C@H](Cc1ccccc1)NC(=O)[C@H](CO)NC(=O)[C@H](CO)NC(=O)[C@H](CCCNC(=N)N)NC(=O)[C@H](CCC(N)=O)NC(=O)[C@H](CC(C)C)NC(=O)[C@H](Cc1ccccc1)NC(=O)[C@H](Cc1c[nH]cn1)NC(=O)[C@H](C)NC(=O)[C@H](CC(C)C)NC(=O)[C@H](CCCNC(=N)N)NC(=O)[C@H](CCC(=O)O)NC(=O)[C@@H](NC(=O)[C@H](C)NC(=O)[C@@H]1CC(=O)NC[C@H](NC(=O)[C@H](CCCNC(=N)N)NC(=O)CC[C@H](NC(=O)CCCCCCCCCCCCCCCCCCC(=O)O)C(=O)O)C(=O)NCC(=O)N[C@@H]([C@@H](C)O)C(=O)N[C@@H](C)C(=O)N[C@@H]([C@@H](C)O)C(=O)N1)[C@@H](C)O, the EC50 was over 10 µM (CALCR; cAMP, agonist).
Cc1ncsc1-c1ccc(CNC(=O)[C@@H]2C[C@@H](O)CN2C(=O)[C@@H](NC(=O)C2(F)CC2)C(C)(C)C)c(OCCC2CN(c3nc(NCC(C)(C)C4(O)CCOC4)nc(N4CCC[C@H]4Cn4ccnn4)n3)C2)c1 (stereo partly drawn) gave an EC50 of 0.517 µM (VHL/BRD9 (Homo sapiens, UniProt P40337+Q9H8M2); ternary complex formation, NanoBiT; HEK293T; 2 h, added: MLN4924 2 µM).
With CC[C@H](C)[C@@H](C(=O)N[C@@H](CC(C)C)C(=O)N[C@@H](CO)C(=O)N[C@@H](CO)C(=O)N[C@H](C(=O)N[C@@H](CCC(=O)O)C(=O)N[C@H](C(=O)NCC(=O)N[C@@H](CO)C(=O)N[C@@H](CC(N)=O)C(=O)N[C@H](C(=O)N1C[C@H](O)C[C@H]1C(N)=O)[C@@H](C)O)C(C)C)[C@@H](C)O)N(C)C(=O)[C@H](C)NC(=O)CN(C)C(=O)[C@H](Cc1ccccc1)NC(=O)[C@H](CO)NC(=O)[C@H](CO)NC(=O)[C@H](CCCNC(=N)N)NC(=O)[C@H](CCC(N)=O)NC(=O)[C@H](CC(C)C)NC(=O)[C@H](Cc1ccccc1)NC(=O)[C@H](Cc1c[nH]cn1)NC(=O)[C@H](C)NC(=O)[C@H](CC(C)C)NC(=O)[C@H](CCCNC(=N)N)NC(=O)[C@H](CCC(=O)O)NC(=O)[C@@H](NC(=O)[C@H](C)NC(=O)[C@@H]1CCCCNC(=O)C[C@H](NC(=O)[C@H](CCCNC(=N)N)NC(=O)CC[C@H](NC(=O)CCCCCCCCCCCCCCCCCCC(=O)O)C(=O)O)C(=O)NCC(=O)N[C@@H]([C@@H](C)O)C(=O)N[C@@H](C)C(=O)N[C@@H]([C@@H](C)O)C(=O)N1)[C@@H](C)O the EC50 was 0.000537 µM (CALCR; cAMP, agonist).
With O=C(NC[C@@H](Cc1ccc(F)cc1)N1CCC(O)(C(F)(F)F)CC1)C1(c2ccc(Cl)cc2)CCCC1 the EC50 was 1.1 µM (TRPA1 (Homo sapiens, UniProt O75762, L881V)).
COc1ccc(C(=O)c2c(C(=O)NCCCN(C)C)oc3ccc(Cl)cc3c2=O)cc1OC has an EC50 of 0.38 µM (GHSR (Homo sapiens, UniProt Q92847, E197A); intracellular Ca2+, agonist; HEK293T transiently transfected).
The EC50 of COc1cc(I)c(Cc2cc(OC)c(OC)cc2CC(=O)OC(C)(C)C)cc1OC is reported as 1.78 µM (MTNR1B (Homo sapiens, UniProt P49286); β-arrestin recruitment, agonist).
CC[C@H](C)[C@@H](C(=O)N[C@@H](CC(C)C)C(=O)N[C@@H](CO)C(=O)N[C@@H](CO)C(=O)N[C@H](C(=O)N[C@@H](CC(N)=O)C(=O)N[C@H](C(=O)NCC(=O)N[C@@H](CO)C(=O)N[C@@H](CC(N)=O)C(=O)N[C@H](C(=O)N1C[C@H](N)C[C@H]1C(N)=O)[C@@H](C)O)C(C)C)[C@@H](C)O)N(C)C(=O)[C@H](C)NC(=O)CN(C)C(=O)[C@H](Cc1ccccc1)NC(=O)[C@H](CC(N)=O)NC(=O)[C@H](CC(N)=O)NC(=O)[C@H](CO)NC(=O)[C@H](CO)NC(=O)[C@H](CCCNC(=N)N)NC(=O)[C@H](Cc1c[nH]cn1)NC(=O)[C@H](CC(C)C)NC(=O)[C@H](Cc1ccccc1)NC(=O)[C@H](CCC(=O)O)NC(=O)[C@H](C)NC(=O)[C@H](CC(C)C)NC(=O)[C@H](CCCNC(=N)N)NC(=O)[C@H](CCC(N)=O)NC(=O)[C@@H](NC(=O)[C@H](C)NC(=O)[C@@H]1CSSC[C@H](NC(=O)[C@H](CCCNC(=N)N)NC(=O)CC[C@H](NC(=O)CCCCCCCCCCCCCCCCCCC(=O)O)C(=O)O)C(=O)N[C@@H](CC(N)=O)C(=O)N[C@@H]([C@@H](C)O)C(=O)N[C@@H](C)C(=O)N[C@@H]([C@@H](C)O)C(=O)N1)[C@@H](C)O has an EC50 of 0.000151 µM (CALCR; cAMP, agonist).
With O=Cc1ccc([N+](=O)[O-])c(OS(=O)(=O)c2cccc(Cl)c2)c1 the EC50 was over 1000 µM (YWHAG/RELA, phospho-Ser45 p65 peptide (Homo sapiens, UniProt P61981+Q04206); ternary complex formation, stabilizer, fluorescence anisotropy).
CC(=O)NCCN(c1nc(N2CC(Oc3ccccc3)C2)nc(N2CC3C(CCOc4cc(-c5scnc5C)ccc4CNC(=O)[C@@H]4C[C@@H](O)CN4C(=O)[C@@H](NC(=O)C4(F)CC4)C(C)(C)C)C3C2)n1)C(C)C (stereo partly drawn) gave an EC50 of 0.68 µM (VHL/BRD9 with Elongin B/C; ternary complex formation, AlphaScreen; added: 50 nM His-BRD9 and 20 nM biotin-VCB).
The EC50 of CC[C@H](C)[C@@H](C(=O)N[C@@H](CC(C)C)C(=O)N[C@@H](CO)C(=O)N[C@@H](CO)C(=O)N[C@H](C(=O)N[C@@H](CCC(=O)O)C(=O)N[C@H](C(=O)NCC(=O)N[C@@H](CO)C(=O)N[C@@H](CC(N)=O)C(=O)N[C@H](C(=O)N1C[C@H](O)C[C@H]1C(N)=O)[C@@H](C)O)C(C)C)[C@@H](C)O)N(C)C(=O)[C@H](C)NC(=O)CN(C)C(=O)[C@H](Cc1ccccc1)NC(=O)[C@H](CO)NC(=O)[C@H](CO)NC(=O)[C@H](CCCNC(=N)N)NC(=O)[C@H](CCC(N)=O)NC(=O)[C@H](CC(C)C)NC(=O)[C@H](Cc1ccccc1)NC(=O)[C@H](Cc1c[nH]cn1)NC(=O)[C@H](C)NC(=O)[C@H](CC(C)C)NC(=O)[C@H](CCCNC(=N)N)NC(=O)[C@H](CCC(=O)O)NC(=O)[C@@H](NC(=O)[C@H](C)NC(=O)[C@@H]1CCCNC(=O)C[C@H](NC(=O)[C@H](CCCNC(=N)N)NC(=O)CC[C@H](NC(=O)CCCCCCCCCCCCCCCCCCC(=O)O)C(=O)O)C(=O)NCC(=O)N[C@@H]([C@@H](C)O)C(=O)N[C@@H](C)C(=O)N[C@@H]([C@@H](C)O)C(=O)N1)[C@@H](C)O is reported as 0.00148 µM (CALCR; cAMP, agonist).
With CCCCCCCCCCCCCCCC(=O)OCC(CSC[C@H](N)C(=O)N[C@@H](CO)C(=O)N[C@@H](CCCCN)C(=O)N[C@@H](CCCCN)C(=O)N[C@@H](CCCCN)C(=O)N[C@@H](CCCCN)C(=O)O)OC(=O)CCCCCCCCCCCCCCC (stereo partly drawn) the EC50 was 1e-05 ± 4e-06 µM (TLR2 (Homo sapiens, UniProt O60603); reporter gene, agonist; HEK-Blue hTLR2 cells).

For quick reference, copied from above:
With CC[C@H](C)[C@@H](C(=O)N[C@@H](CC(C)C)C(=O)N[C@@H](CO)C(=O)N[C@@H](CO)C(=O)N[C@H](C(=O)N[C@@H](CCC(=O)O)C(=O)N[C@H](C(=O)NCC(=O)N[C@@H](CO)C(=O)N[C@@H](CC(N)=O)C(=O)N[C@H](C(=O)N1C[C@H](O)C[C@H]1C(N)=O)[C@@H](C)O)C(C)C)[C@@H](C)O)N(C)C(=O)[C@H](C)NC(=O)CN(C)C(=O)[C@H](Cc1ccccc1)NC(=O)[C@H](CO)NC(=O)[C@H](CO)NC(=O)[C@H](CCCNC(=N)N)NC(=O)[C@H](CCC(N)=O)NC(=O)[C@H](CC(C)C)NC(=O)[C@H](Cc1ccccc1)NC(=O)[C@H](Cc1c[nH]cn1)NC(=O)[C@H](C)NC(=O)[C@H](CC(C)C)NC(=O)[C@H](CCCNC(=N)N)NC(=O)[C@H](CCC(=O)O)NC(=O)[C@@H](NC(=O)[C@H](C)NC(=O)[C@@H]1CCCCNC(=O)C[C@H](NC(=O)[C@H](CCCNC(=N)N)NC(=O)CC[C@H](NC(=O)CCCCCCCCCCCCCCCCCCC(=O)O)C(=O)O)C(=O)NCC(=O)N[C@@H]([C@@H](C)O)C(=O)N[C@@H](C)C(=O)N[C@@H]([C@@H](C)O)C(=O)N1)[C@@H](C)O the EC50 was 0.000537 µM (CALCR; cAMP, agonist).
